Experimental data from different studies.
Every numbered part comes from another study and shows a few of its results, in no order.
Chain of UniProt P08913 (whole entry, looked up): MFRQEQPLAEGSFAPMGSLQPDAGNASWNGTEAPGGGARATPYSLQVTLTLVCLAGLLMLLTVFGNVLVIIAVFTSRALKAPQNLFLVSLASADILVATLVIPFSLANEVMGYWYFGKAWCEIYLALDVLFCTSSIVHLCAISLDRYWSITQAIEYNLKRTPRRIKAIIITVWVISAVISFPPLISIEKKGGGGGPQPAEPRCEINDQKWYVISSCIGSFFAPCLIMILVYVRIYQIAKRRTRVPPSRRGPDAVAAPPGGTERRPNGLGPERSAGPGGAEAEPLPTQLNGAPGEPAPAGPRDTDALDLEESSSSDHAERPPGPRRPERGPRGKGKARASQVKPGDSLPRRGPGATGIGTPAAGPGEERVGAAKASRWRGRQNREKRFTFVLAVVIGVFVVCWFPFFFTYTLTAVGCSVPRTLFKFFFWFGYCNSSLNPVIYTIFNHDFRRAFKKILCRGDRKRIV
Chain of UniProt P28223 (whole entry, looked up): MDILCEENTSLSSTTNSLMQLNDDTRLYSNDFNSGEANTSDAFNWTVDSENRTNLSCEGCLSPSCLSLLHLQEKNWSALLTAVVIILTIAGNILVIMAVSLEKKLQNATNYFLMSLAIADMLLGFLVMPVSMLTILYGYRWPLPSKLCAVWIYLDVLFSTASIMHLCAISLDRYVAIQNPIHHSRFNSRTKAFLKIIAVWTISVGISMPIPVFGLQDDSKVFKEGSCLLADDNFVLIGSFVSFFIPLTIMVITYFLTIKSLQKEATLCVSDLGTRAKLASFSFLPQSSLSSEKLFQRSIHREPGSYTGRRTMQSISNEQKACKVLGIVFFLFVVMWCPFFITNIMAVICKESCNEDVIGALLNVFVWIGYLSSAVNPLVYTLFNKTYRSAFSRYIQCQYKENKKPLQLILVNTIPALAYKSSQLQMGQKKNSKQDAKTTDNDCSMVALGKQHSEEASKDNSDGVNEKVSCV
Chain of UniProt P41143 (whole entry, looked up): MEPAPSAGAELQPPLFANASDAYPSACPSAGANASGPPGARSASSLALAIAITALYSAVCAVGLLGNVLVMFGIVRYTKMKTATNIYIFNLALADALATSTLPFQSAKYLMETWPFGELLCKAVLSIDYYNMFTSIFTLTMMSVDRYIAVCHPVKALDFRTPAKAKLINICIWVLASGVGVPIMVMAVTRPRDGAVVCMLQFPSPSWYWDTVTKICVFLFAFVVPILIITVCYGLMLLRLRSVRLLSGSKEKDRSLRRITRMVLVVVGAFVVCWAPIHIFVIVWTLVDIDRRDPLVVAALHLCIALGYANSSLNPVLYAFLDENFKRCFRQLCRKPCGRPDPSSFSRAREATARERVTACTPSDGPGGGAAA
Chain of UniProt P08588 (whole entry, looked up): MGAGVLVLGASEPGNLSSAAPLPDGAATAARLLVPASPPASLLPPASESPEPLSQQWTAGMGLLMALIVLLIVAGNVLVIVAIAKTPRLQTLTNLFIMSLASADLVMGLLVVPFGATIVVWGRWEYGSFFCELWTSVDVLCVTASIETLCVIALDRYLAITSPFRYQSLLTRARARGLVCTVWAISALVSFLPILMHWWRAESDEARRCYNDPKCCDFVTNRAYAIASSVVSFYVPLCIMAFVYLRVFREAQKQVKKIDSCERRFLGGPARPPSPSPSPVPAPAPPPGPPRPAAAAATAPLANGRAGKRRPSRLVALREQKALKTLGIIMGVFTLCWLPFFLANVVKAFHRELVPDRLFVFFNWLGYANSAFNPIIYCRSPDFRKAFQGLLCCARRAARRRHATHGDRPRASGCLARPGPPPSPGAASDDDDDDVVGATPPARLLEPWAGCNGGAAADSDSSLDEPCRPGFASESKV
Chain of UniProt O60285 (whole entry, looked up): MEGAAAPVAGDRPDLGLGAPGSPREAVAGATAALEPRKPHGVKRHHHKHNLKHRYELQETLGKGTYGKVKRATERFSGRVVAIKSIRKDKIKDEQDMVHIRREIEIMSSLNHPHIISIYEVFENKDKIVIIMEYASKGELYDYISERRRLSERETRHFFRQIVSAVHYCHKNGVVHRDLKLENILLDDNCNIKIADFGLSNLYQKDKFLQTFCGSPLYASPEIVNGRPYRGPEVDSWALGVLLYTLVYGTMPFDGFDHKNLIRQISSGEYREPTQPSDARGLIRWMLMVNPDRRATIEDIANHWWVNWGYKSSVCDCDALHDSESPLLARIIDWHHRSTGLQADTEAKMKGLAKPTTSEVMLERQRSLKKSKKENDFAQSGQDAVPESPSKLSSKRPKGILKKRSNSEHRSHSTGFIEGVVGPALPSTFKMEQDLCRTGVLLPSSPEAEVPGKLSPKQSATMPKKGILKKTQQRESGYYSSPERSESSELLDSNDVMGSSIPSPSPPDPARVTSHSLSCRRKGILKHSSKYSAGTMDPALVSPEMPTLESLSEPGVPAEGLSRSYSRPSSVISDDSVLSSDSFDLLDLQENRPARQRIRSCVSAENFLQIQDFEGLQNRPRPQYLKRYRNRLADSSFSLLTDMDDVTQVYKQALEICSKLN
Chain of UniProt Q02156 (whole entry, looked up): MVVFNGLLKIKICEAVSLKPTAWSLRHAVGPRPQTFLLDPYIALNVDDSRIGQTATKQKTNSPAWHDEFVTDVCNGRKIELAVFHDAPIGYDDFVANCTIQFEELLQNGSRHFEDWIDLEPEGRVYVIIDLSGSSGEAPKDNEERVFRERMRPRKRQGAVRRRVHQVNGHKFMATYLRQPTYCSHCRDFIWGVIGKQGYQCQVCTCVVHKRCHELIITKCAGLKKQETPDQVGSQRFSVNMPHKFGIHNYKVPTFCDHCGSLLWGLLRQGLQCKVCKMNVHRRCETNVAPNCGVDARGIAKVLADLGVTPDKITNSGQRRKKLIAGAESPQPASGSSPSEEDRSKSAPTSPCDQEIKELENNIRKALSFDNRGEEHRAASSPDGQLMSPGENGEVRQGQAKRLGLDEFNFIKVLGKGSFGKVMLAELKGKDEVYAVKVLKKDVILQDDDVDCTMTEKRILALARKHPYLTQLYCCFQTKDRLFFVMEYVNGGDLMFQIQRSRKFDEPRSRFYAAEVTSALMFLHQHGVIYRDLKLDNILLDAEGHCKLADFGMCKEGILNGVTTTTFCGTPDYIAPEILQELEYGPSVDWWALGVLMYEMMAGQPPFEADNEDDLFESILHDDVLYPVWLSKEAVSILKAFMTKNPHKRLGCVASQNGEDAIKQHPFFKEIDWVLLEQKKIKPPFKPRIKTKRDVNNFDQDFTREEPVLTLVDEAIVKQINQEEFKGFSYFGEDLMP
Chain of UniProt P07550 (whole entry, looked up): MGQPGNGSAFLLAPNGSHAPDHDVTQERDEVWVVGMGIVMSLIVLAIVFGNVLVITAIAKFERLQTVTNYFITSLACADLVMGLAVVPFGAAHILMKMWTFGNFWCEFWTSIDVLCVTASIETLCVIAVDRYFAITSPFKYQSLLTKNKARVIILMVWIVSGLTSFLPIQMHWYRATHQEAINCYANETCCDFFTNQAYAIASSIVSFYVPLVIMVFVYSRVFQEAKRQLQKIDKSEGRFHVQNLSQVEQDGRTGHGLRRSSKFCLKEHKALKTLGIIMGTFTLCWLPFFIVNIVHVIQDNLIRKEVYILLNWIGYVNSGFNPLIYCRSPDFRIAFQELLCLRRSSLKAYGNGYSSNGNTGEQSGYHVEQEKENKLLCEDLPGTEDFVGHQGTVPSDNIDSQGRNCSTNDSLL
Chain of UniProt P50406 (whole entry, looked up): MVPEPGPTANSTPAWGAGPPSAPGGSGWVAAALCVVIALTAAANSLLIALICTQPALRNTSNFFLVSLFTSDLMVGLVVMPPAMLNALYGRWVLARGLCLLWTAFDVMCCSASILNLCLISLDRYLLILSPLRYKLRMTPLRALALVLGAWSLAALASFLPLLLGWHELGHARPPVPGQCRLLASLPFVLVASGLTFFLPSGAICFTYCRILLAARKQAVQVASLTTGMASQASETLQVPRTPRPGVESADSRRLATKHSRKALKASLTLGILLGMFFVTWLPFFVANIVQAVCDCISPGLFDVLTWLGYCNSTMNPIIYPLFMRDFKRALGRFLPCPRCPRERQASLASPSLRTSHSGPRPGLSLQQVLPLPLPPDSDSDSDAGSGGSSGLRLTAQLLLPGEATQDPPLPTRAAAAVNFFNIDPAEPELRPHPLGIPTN
Chain of UniProt Q5BJF2 (whole entry, looked up): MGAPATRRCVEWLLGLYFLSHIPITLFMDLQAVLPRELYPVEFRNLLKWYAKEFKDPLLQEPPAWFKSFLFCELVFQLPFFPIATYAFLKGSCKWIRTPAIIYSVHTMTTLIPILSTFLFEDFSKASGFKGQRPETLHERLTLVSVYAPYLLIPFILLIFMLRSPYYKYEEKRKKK
Chain of UniProt P51813 (whole entry, looked up): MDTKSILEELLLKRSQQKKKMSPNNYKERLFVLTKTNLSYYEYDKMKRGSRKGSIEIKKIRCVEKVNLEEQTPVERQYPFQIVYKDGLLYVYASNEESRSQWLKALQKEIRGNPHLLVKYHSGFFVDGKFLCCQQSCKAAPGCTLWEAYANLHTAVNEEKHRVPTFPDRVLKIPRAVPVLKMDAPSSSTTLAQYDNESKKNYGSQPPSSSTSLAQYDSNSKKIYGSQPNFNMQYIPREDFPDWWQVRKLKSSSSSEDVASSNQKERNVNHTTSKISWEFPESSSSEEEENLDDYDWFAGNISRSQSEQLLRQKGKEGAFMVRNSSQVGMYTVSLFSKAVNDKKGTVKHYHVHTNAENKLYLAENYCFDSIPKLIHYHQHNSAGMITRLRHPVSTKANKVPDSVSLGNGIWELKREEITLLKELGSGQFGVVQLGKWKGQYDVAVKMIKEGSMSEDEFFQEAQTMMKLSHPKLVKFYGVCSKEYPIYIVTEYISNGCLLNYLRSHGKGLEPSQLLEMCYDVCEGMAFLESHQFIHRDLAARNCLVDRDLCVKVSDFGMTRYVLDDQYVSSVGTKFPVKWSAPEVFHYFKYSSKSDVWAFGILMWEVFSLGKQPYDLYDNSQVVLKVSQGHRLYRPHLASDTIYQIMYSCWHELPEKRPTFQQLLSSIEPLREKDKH

Study 1
Structure (SMILES): COc1ccc2c(c1)/C(=C/c1cnc[nH]1)C(=O)N2
Observed: enzyme activity
Mode: inhibitor
Concentration: 0.5 µM
Relative to: control
Quantity: remaining activity
NUAK1 (Homo sapiens, UniProt O60285): 8.87%
SRPK3 (Homo sapiens, UniProt Q9UPE1): 96.2%
BMX (Homo sapiens, UniProt P51813): 100%
PRKCE (Homo sapiens, UniProt Q02156): 99%
CSF1R (Homo sapiens, UniProt P07333): 88.7%

Study 2
Cell line: HEK-293T/ACE2
Concentration: concentration not given
Time: 16 (unit not given)
Relative to: vehicle
Quantity: viability
OCCOCCN1CCN(C(c2ccccc2)c2ccc(Cl)cc2)CC1 (stereo not shown): 84%
CC(C)CC(N(C)C)C1(c2ccc(Cl)cc2)CCC1 (stereo not shown): 97.3%
Nc1ccn([C@@H]2O[C@H](CO)[C@@H](O)C2(F)F)c(=O)n1: 84.7%
NC(=O)N1c2ccccc2CC(=O)c2ccccc21: 96.4%
COCC(=O)Nc1c(I)c(C(=O)NCC(O)CO)c(I)c(C(=O)N(C)CC(O)CO)c1I (stereo not shown): 99.4%
CC(C)(C)NCC(O)c1cc(O)cc(O)c1 (stereo not shown): 103%

Study 3
Cell line: HEK-293T-ACE2-TMPRSS2
Method: cell count
Concentration: 10 µM
Quantity: viability
CCCc1nc(Cn2ncc(Br)c(Br)c2=O)no1: 95%
O=C1c2ccccc2C(=O)N1Cn1ncc(Cl)c(Cl)c1=O: 83%
CN(C)c1ncc2c(n1)CCCC2NC1CCN(c2ccccc2F)CC1 (stereo not shown): 114%
CCC(CC)C(=O)N1C[C@@H](CO)[C@H](c2nc(COC)no2)C1: 100%
Cc1cc(C(=O)N2C[C@@H](COCC3CC3)[C@H](c3ccncc3)C2)c(C)o1: 102%
Cc1cc(-n2c(C)cc(C(=O)Cn3ncc(Cl)c(Cl)c3=O)c2C)no1: 71%

Study 4
Compound: Cn1cncc1[C@](O)(COc1ccc(C#N)cc1-c1ccc(OC(F)(F)F)cc1)c1ccc(C#N)cc1
Observed: binding
Method: radioligand binding
Concentration: 10 µM
Quantity: inhibition
CHRM5 (Homo sapiens, UniProt P08912): -4.82%
ADRB2 (Homo sapiens, UniProt P07550): 0.0774%
DRD2 (Homo sapiens, UniProt P14416): -16.5%
DRD3 (Homo sapiens, UniProt P35462): -9.46%
TMEM97 (Homo sapiens, UniProt Q5BJF2): 40.3%
HTR2A (Homo sapiens, UniProt P28223): -0.429%
ADRA1A (Homo sapiens, UniProt P35348): -7.74%
HTR6 (Homo sapiens, UniProt P50406): 6.74%
HTR2C (Homo sapiens, UniProt P28335): 0.26%
SIGMAR1 (Homo sapiens, UniProt Q99720): 42.5%
HTR2B (Homo sapiens, UniProt P41595): -5.75%
CHRM1 (Homo sapiens, UniProt P11229): -4.07%
ADRA2A (Homo sapiens, UniProt P08913): 32.2%
OPRD1 (Homo sapiens, UniProt P41143): -0.182%
ADRB1 (Homo sapiens, UniProt P08588): 4.25%
DRD4 (Homo sapiens, UniProt P21917): -1.32%
HRH3 (Homo sapiens, UniProt Q9Y5N1): 5.92%
